Published values collected from several papers.
Protocols differ between the studies behind these lines. Values joined by “and” are separate records of one study, mostly repeats; a detail may differ. ± marks the error that the study gave.
UniProt P39656, sequence (whole entry, looked up): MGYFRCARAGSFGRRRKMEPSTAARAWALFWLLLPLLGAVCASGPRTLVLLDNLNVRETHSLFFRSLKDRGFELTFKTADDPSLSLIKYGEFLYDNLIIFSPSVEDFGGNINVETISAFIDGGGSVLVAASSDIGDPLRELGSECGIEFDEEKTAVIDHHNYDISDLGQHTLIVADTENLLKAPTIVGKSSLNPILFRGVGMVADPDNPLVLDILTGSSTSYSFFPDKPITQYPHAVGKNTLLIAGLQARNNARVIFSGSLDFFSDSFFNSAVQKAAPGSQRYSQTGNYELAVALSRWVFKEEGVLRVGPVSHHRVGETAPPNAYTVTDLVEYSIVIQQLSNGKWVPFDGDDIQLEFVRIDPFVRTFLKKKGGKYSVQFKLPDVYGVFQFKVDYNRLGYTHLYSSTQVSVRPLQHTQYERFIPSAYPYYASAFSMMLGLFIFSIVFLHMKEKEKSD
UniProt P47901, sequence (whole entry, looked up): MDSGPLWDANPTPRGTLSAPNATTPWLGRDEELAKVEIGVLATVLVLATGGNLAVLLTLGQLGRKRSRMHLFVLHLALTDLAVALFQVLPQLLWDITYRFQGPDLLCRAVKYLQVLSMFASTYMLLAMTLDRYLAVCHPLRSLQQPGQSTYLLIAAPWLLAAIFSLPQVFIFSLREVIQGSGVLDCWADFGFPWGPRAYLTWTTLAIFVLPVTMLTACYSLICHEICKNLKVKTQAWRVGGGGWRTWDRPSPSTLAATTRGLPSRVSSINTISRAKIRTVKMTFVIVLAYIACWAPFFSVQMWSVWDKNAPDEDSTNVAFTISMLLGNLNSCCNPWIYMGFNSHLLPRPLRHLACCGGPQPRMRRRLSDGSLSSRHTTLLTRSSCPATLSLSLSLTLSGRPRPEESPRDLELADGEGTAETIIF

| Compound | target or system | test | test system | setting | how to read | measurement | result |
| --- | --- | --- | --- | --- | --- | --- | --- |
| CC[C@H](C)[C@@H]1NC(=O)[C@@H]2CCCN2C(=O)[C@H](CC(C)C)NC(=O)[C@H](CC(C)C)NC(=O)CNC(=O)[C@@H](NC(=O)[C@@H](NC(=O)[C@H](CC(=O)O)NC(=O)CNC(=O)[C@@H](NC(=O)[C@H](C)NC(=O)CNC(=O)[C@H](CCCCN)NC(=O)[C@H](CC(C)C)NC(=O)[C@H](CC(C)C)NC(=O)[C@H](CCCCN)NC(=O)CNC(=O)[C@@H](NC(=O)[C@@H](N)CC(C)C)C(C)C)C(C)C)C(C)C)CSSC[C@@H](C(=O)O)NC1=O | – | RNA-seq, measured: Tes mRNA | mouse traumatic brain injury, frontal cortex and hippocampus | dose not given | relative to: TBI plus compound vs TBI | log2 fold change | -1.78 |
| O=[N+]([O-])c1ccc(-c2nn(-c3ccccc3)c3sc(NC(c4ccccc4O)P(=O)(Oc4ccccc4)Oc4ccccc4)nc23)cc1 (stereo not drawn) | Vero cells | SRB | – | 10 µM, 10% fetal bovine serum | – | viability | 94.2% |
| CC[C@H](C)[C@H](NC(=O)[C@@H](N)CC(N)=O)C(=O)N1CCC[C@H]1C(=O)N1CCC[C@H]1C(=O)N[C@@H](CC(C)C)C(=O)N[C@H](C(=O)N[C@@H](CCC(N)=O)C(=O)N[C@H](C(=O)N1CCC[C@H]1C(=O)N[C@H](C(=O)N[C@H](C(=O)N[C@H](C(=O)N1CCC[C@H]1C(=O)N1CCC[C@H]1C(=O)N[C@@H](Cc1ccccc1)C(=O)N[C@@H](CC(C)C)C(=O)N[C@@H](CCC(N)=O)C(=O)N1CCC[C@H]1C(=O)N[C@@H](CCC(=O)O)C(=O)O)C(C)C)C(C)C)C(C)C)[C@@H](C)O)[C@@H](C)O | Caco-2 monolayers | – | – | 10 µM, 60 min, together with: wortmannin 0.5 mM preincubated 30 min | relative to: untreated | transport | no effect |
| O=C(O)C(F)(F)C(F)(F)C(F)(F)F | hTERT-RPTEC parental | LDH release | culture medium | concentration not given, 24 h, 96-well plate | – | LDH activity in medium | 24.3 mU/mL |
| N=C(N)NCCC[C@H](NC(=O)[C@H](CCCNC(=N)N)NC(=O)[C@H](CCCCN)NC(=O)[C@H](CCCNC(=N)N)NC(=O)[C@H](Cc1ccccc1)NC(=O)[C@H](Cc1ccc(O)cc1)NC(=O)[C@H](CCCNC(=N)N)NC(=O)[C@H](CCCNC(=N)N)NC(=O)[C@H](CCCNC(=N)N)NC(=O)[C@H](CCCNC(=N)N)NC(=O)[C@H](CCCNC(=N)N)NC(=O)[C@H](Cc1ccc(O)cc1)NC(=O)[C@H](CCCNC(=N)N)NC(=O)[C@@H](N)CCCNC(=N)N)C(=O)O | DF-1 | – | – | 5 µM, 24 h | relative to: untreated cells | viability | 100.9 ± 0.5% |
| CC(c1ccccc1)(c1ccc(O)cc1)c1ccc(O)cc1 | HepG2 spheroids, dissociated | annexin V-FITC/PI flow cytometry | – | 1 µM, 96 h | – | viable cells | 41 ± 7.61% |
| N#C[C@@]1(n2ccc(N)nc2=O)O[C@H](CO)[C@@H](O)[C@H]1O | CHO | – | – | 130 µM, without S9 | – | micronucleated cells | 0.33% |
| N=C(N)NCCC[C@H](NC(=O)[C@H](CCCNC(=N)N)NC(=O)[C@H](CCCNC(=N)N)NC(=O)[C@H](CCC(N)=O)NC(=O)[C@H](CCCNC(=N)N)NC(=O)[C@H](CCCNC(=N)N)NC(=O)[C@H](CCCCN)NC(=O)[C@H](CCCCN)NC(=O)[C@H](CCCNC(=N)N)NC(=O)CNC(=O)[C@@H](N)Cc1ccc(O)cc1)C(=O)O | DF-1 | – | – | 25 µM, 48 h | relative to: untreated cells | viability | 98.4 ± 0.81% |
| CC[C@H](C)[C@H](NC(=O)[C@H](Cc1ccccc1)NC(=O)[C@H](CCC(=O)O)NC(=O)[C@H](CCCNC(=N)N)NC(=O)[C@H](C)NC(=O)[C@H](C)NC(=O)[C@H](CCC(N)=O)NC(=O)[C@H](CCC(=O)O)NC(=O)[C@H](CCC(=O)O)NC(=O)[C@H](CC(C)C)NC(=O)[C@H](Cc1ccc(O)cc1)NC(=O)[C@H](CO)NC(=O)[C@H](CO)NC(=O)[C@@H](NC(=O)[C@H](CC(=O)O)NC(=O)[C@H](CO)NC(=O)[C@@H](NC(=O)[C@H](Cc1ccccc1)NC(=O)[C@@H](NC(=O)CNC(=O)[C@H](CCC(=O)O)NC(=O)[C@H](C)NC(=O)CCc1c[nH]cn1)[C@@H](C)O)[C@@H](C)O)C(C)C)C(=O)N[C@@H](C)C(=O)N[C@@H](Cc1c[nH]c2ccccc12)C(=O)N[C@@H](CC(C)C)C(=O)N[C@H](C(=O)N[C@@H](CCCNC(=N)N)C(=O)NCC(=O)N[C@@H](CCCNC(=N)N)C(=O)N[C@@H](CCCCNC(=O)COCCOCCNC(=O)COCCOCCNC(=O)CC[C@H](NC(=O)CCCCCCCCCCCCCCCCC(=O)O)C(=O)O)C(=O)NCC(=O)NCC(=O)N[C@@H](CO)C(=O)N[C@@H](CCCCNc1c(NCCCCCN(O)C(=O)CCC(=O)NCCCCCN(O)C(=O)CCC(=O)NCCCCCN(O)C(C)=O)c(=O)c1=O)C(=O)O)C(C)C [zirconium-89 labelled] | – | – | rat, blood | sc, 3 nmol/kg, 168 h, ex vivo | – | tissue uptake | 0.02 %ID/g |
| CC[C@H](C)[C@H](NC(=O)[C@H](CCCNC(=N)N)NC(=O)[C@H](Cc1c[nH]c2ccccc12)NC(=O)[C@H](CCCNC(=N)N)NC(=O)[C@H](Cc1c[nH]c2ccccc12)NC(=O)[C@H](Cc1c[nH]c2ccccc12)NC(=O)[C@H](Cc1c[nH]c2ccccc12)NC(=O)[C@H](CCCNC(=N)N)NC(=O)[C@H](Cc1c[nH]c2ccccc12)NC(=O)[C@@H](N)CCCNC(=N)N)C(N)=O | HD11 macrophages | – | – | – | – | LC50 | 289 µM |
| COc1ccc(CCN2CCC(Nc3nc4ccccc4n3Cc3ccc(F)cc3)CC2)cc1 | 293T-ACE2 | – | – | 40 (unit not given) | – | CC50 | > 2.5 µM |
| CO[C@H]1C[C@@H]2CC[C@@H](C)[C@@](O)(O2)C(=O)C(=O)N2CCCC[C@H]2C(=O)O[C@H]([C@H](C)C[C@@H]2CC[C@@H](OC(=O)NCCOCCOCCOCCOCCOCCOCCOCCOCCC(=O)N3CCc4cc(Cn5nc(-c6ccc7oc(N)nc7c6)c6c(N)ncnc65)ccc4C3)[C@H](OC)C2)C[C@@H](O)[C@H](C)/C=C(\C)[C@@H](O)[C@@H](OC)C(=O)[C@H](C)C[C@H](C)/C=C/C=C/C=C/1C | – | dose-escalation trial | patients with advanced solid tumours | intravenous, 1.6 mg/3 mg weekly, grade ≥3 | – | decreased appetite TEAE incidence | 0% |
| CC(C)(Oc1ccc(CCNC(=O)c2ccc(Cl)cc2)cc1)C(=O)O | HEK293-H PPARγ-UAS-bla cells | cell confluency, IncuCyte imaging | – | 24 h, nominal concentration | – | IC10 | 533 µM |
| C[C@@H]1O[C@@H](O[C@H]2C[C@@H](O)[C@]3(CO)[C@H]4[C@H](O)C[C@]5(C)[C@@H](C6=CC(=O)OC6)CC[C@]5(O)[C@@H]4CC[C@]3(O)C2)[C@H](O)[C@H](O)[C@H]1O | Jurkat | ATP content | – | 25 µM, 6 h | – | toxicity | not toxic |
| Oc1ccc(C2(c3ccc(O)cc3)c3ccccc3-c3ccccc32)cc1 | HepG2 spheroids | annexin V-FITC/PI flow cytometry | – | 10 µM, 96 h | – | necrotic cells | 57% and 56.6% |
| O=c1ccc2ccccc2o1 | HepaRG 3D spheroids | oxidative stress, high-content screening | – | concentration not given, 168 h, 10% FBS medium | – | probability of response | 48.3% |
| COc1ccc(/C=C/c2nc(N)[nH]c(=O)c2Br)cc1OC | HEL human embryonic lung fibroblasts | cell morphology alteration | – | – | – | minimum cytotoxic concentration | > 100 µM |
| CN1CC[C@@H](c2c(O)cc(O)c3c(=O)cc(-c4ccc(C(F)(F)F)cc4Cl)oc23)[C@@H]1CO | – | measured: urinary incontinence | B-cell malignancies or AML | oral, 100 mg, grade 3 to 4, continuous dosing | – | patients with adverse event | 0% |
| COc1cc2c(Oc3ccc4[nH]c(C)cc4c3F)ccnc2cc1OCC1(N)CC1 | – | – | paediatric recurrent refractory sarcoma | 10 mg | – | grade 3 TBIL elevation | 0% |
| C[C@@H](O)[C@@H](CO)NC(=O)[C@@H](CCCNC(=N)N)NC(=O)[C@@H]1CCCN1C(=O)[C@@H]1CSSC[C@H](NC(=O)[C@H](Cc2ccccc2)NC(=O)CN2CCN(CC(=O)O)CCN(CC(=O)O)CCN(CC(=O)O)CC2)C(=O)N[C@@H](Cc2ccc(O)cc2)C(=O)N[C@@H](Cc2ccccc2)C(=O)N[C@@H](CCC(N)=O)C(=O)N[C@@H](CC(N)=O)C(=O)N1 [gallium-68 labelled] | – | – | Wistar rat, healthy, Pituitary gland | intravenous, 8 MBq, 120 min, mean | – | tissue uptake | 0.2 %ID/g |
| CN(C)CCCC1(c2ccc(F)cc2)OCc2cc(C#N)ccc21 (stereo not drawn) | SH-SY5Y | cell viability, propidium iodide staining | – | 24 h, freely dissolved concentration | – | IC10 | 52.8 µM |
| COc1cc(Nc2ncc(F)c(Nc3ccc4c(n3)NC(=O)C(C)(C)O4)n2)cc(OC)c1OC | AVPR1B (Homo sapiens, UniProt P47901) | – | – | – | – | IC50 | > 10 µM |
| C[C@H]1CN(c2n[nH]c3nc(N[C@H]4CC[C@H](NS(=O)(=O)CCC(F)(F)F)CC4)ncc23)CCO1 | Dolichyl-diphosphooligosaccharide--protein glycosyltransferase 48 kDa subunit (Homo sapiens, UniProt P39656) | Kinobeads competition, measured: DDOST | – | 0.032 µM, unit not given | relative to: vehicle | remaining binding | 1.08 |
| Cc1cc(C(C)(C)c2ccc(O)c(C)c2)ccc1O | HepG2 spheroids, dissociated | annexin V-FITC/PI flow cytometry | – | 1 µM, 96 h | – | early apoptotic cells | 3.38 ± 1.81% |

A few entries again:
| Compound | target or system | test | test system | setting | how to read | measurement | result |
| --- | --- | --- | --- | --- | --- | --- | --- |
| C[C@@H](O)[C@@H](CO)NC(=O)[C@@H](CCCNC(=N)N)NC(=O)[C@@H]1CCCN1C(=O)[C@@H]1CSSC[C@H](NC(=O)[C@H](Cc2ccccc2)NC(=O)CN2CCN(CC(=O)O)CCN(CC(=O)O)CCN(CC(=O)O)CC2)C(=O)N[C@@H](Cc2ccc(O)cc2)C(=O)N[C@@H](Cc2ccccc2)C(=O)N[C@@H](CCC(N)=O)C(=O)N[C@@H](CC(N)=O)C(=O)N1 [gallium-68 labelled] | – | – | Wistar rat, healthy, Pituitary gland | intravenous, 8 MBq, 120 min, mean | – | tissue uptake | 0.2 %ID/g |
| CC[C@H](C)[C@H](NC(=O)[C@H](CCCNC(=N)N)NC(=O)[C@H](Cc1c[nH]c2ccccc12)NC(=O)[C@H](CCCNC(=N)N)NC(=O)[C@H](Cc1c[nH]c2ccccc12)NC(=O)[C@H](Cc1c[nH]c2ccccc12)NC(=O)[C@H](Cc1c[nH]c2ccccc12)NC(=O)[C@H](CCCNC(=N)N)NC(=O)[C@H](Cc1c[nH]c2ccccc12)NC(=O)[C@@H](N)CCCNC(=N)N)C(N)=O | HD11 macrophages | – | – | – | – | LC50 | 289 µM |
